Assay results of several laboratories.
Each line is one published result; not all experiments were run side by side. “And” joins repeats or separate records; there may be more than shown. ± gives the spread as reported.
PFF0160c E182D: Dihydroorotate dehydrogenase (quinone), mitochondrial (PFF0160c, Plasmodium falciparum, UniProt Q08210, E182D)

O=S(=O)(F)Cc1ccccc1  koff (Nuclear receptor subfamily 2 group C member 2, ligand-binding domain (Homo sapiens, UniProt P49116); SPR imaging; 600 nM): 4.02e-07 s⁻¹
COc1cc2c(Oc3ccc4[nH]c(C)cc4c3F)ccnc2cc1OCC1(N)CC1  grade 1 or 2 Hematuria (paediatric recurrent refractory sarcoma; 12 mg): 36.4%
Oc1ccc2c3c1O[C@H]1[C@@H](O)CC[C@@]4(O)[C@@H](C2)N(CC2CCC2)CC[C@]314  log2 fold change (MRGPRD (Homo sapiens, UniProt Q8TDS7); β-arrestin recruitment, TANGO luminescence; concentration not given; baseline: basal luminescence): -0.00318
CCN1CCN(Cc2ccc(Nc3nc4ccc(Oc5ccnc(NC(=O)C6CCN(C)CC6)c5)cc4n3C)cc2C(F)(F)F)CC1  Tm (Protein kinase 6 (Plasmodium falciparum, UniProt Q8IDW1); differential scanning fluorimetry; 10 µM): 50 °C
CO[C@H]1C[C@@H]2CC[C@@H](C)[C@@](O)(O2)C(=O)C(=O)N2CCCC[C@H]2C(=O)O[C@H]([C@H](C)C[C@@H]2CC[C@@H](OC(=O)NCCOCCOCCOCCOCCOCCOCCOCCOCCC(=O)N3CCc4cc(Cn5nc(-c6ccc7oc(N)nc7c6)c6c(N)ncnc65)ccc4C3)[C@H](OC)C2)C[C@@H](O)[C@H](C)/C=C(\C)[C@@H](O)[C@@H](OC)C(=O)[C@H](C)C[C@H](C)/C=C/C=C/C=C/1C  deaths due to TRAEs (phase 1 dose escalation; advanced solid tumour patients; intravenous, 8 mg weekly, grade ≥3): 0%
COc1ccc(N2C(=O)N(c3c(C)cccc3Cl)Cc3cnc(Nc4ccc(C5CCN(C)CC5)cc4OC)nc32)nc1  inhibition (Cyclin-dependent kinase 1 (CDK1, Homo sapiens, UniProt P06493); kinase activity; 0.5 µM): 1.88%
O=[N+]([O-])c1ccc(O[C@@H]2O[C@H](CO)[C@H](O)[C@H](O)[C@H]2O)cc1  Km (Beta-galactosidase (lacZ, Escherichia coli K-12, UniProt P00722); substrate): 40 ± 4 µM
COc1cc(Nc2ncc(F)c(Nc3ccc4c(n3)NC(=O)C(C)(C)O4)n2)cc(OC)c1OC  inhibition (Cyclin-dependent kinase 8 (CDK8, Homo sapiens, UniProt P49336); KINOMEscan; 10 µM): 0%
CN1CCN(c2cc(-c3ccncc3)c(-c3ccc4ccccc4c3)nn2)CC1  activation (Orexin/Hypocretin receptor type 1 (HCRTR1, Homo sapiens, UniProt O43613); agonist, FLIPR; 12.5 µM): -2.4%
OC1Cc2ccccc2CC1N1CCC2(C=Cc3cc(F)ccc32)CC1 (racemic)  selectivity ratio (Vesicular acetylcholine transporter (Rattus norvegicus, UniProt Q62666); rat liver (sigma2); baseline: Ki sigma2 over Ki VAChT): 14
O=C(c1ccc(Cl)cc1)N1CCN2C(=O)N(OC(=O)N3CCOc4ccccc43)C(=O)C2C1 (stereo not shown)  peptide ratio (Neutral amino acid transporter B(0) (SLC1A5, Homo sapiens, UniProt Q15758); MS-based ABPP; SW-620 conditioned medium; 10 µM, 1 h, 37 °C; baseline: compound over DMSO, lower = more inhibition): 1.5 and 1.14 and 1.13
C[C@H]1CN(c2n[nH]c3nc(N[C@H]4CC[C@H](NS(=O)(=O)CCC(F)(F)F)CC4)ncc23)CCO1  remaining binding (Mitotic checkpoint protein BUB3 (Homo sapiens, UniProt O43684); Kinobeads competition, measured: BUB3; 20 µM, unit not given; baseline: vehicle): 1.24
CCn1c(-c2ccccc2)cc2nnc3ccccc3c21  IC50 ratio (PFF0160c E182D; enzyme activity, DCIP colorimetric; baseline: E182D mutant over wild type): 1.1
CC[C@H](C)[C@@H]1NC(=O)[C@@H]2CCCN2C(=O)[C@H](CC(C)C)NC(=O)[C@H](CC(C)C)NC(=O)CNC(=O)[C@@H](NC(=O)[C@@H](NC(=O)[C@H](CC(=O)O)NC(=O)CNC(=O)[C@@H](NC(=O)[C@H](C)NC(=O)CNC(=O)[C@H](CCCCN)NC(=O)[C@H](CC(C)C)NC(=O)[C@H](CC(C)C)NC(=O)[C@H](CCCCN)NC(=O)CNC(=O)[C@@H](NC(=O)[C@@H](N)CC(C)C)C(C)C)C(C)C)C(C)C)CSSC[C@@H](C(=O)O)NC1=O  log2 fold change (RNA-seq, measured: Pfkfb3; mouse, traumatic brain injury model, frontal cortex and hippocampus; dose not given; baseline: TBI alone): -1.77
CC(c1ccc(OC(F)(F)F)cc1)c1nn2c(-c3cccs3)nnc2s1 (stereo not shown)  IC50 ratio (PFF0160c E182D; enzyme activity, DCIP colorimetric; baseline: E182D mutant over wild type): 0.6
CC(=O)N[C@H](C(=O)N1C[C@H](O)C[C@H]1C(=O)NCc1ccc(-c2scnc2C)cc1)C(C)(C)SCCCCCCNC(=O)C[C@@H]1N=C(c2ccc(Cl)cc2)c2c(sc(C)c2C)-n2c(C)nnc21  ΔH (Bromodomain-containing protein 2, BD1 (BRD2, Homo sapiens, UniProt P25440, K107A/Q101K/V106E); ITC; 25 °C, BD1 KEA mutant, binary): -15 ± 1 kcal/mol
CC(C)(C)NCC(O)COc1ccccc1OCC1CCCO1 (stereo not shown)  activity class (Acetylcholinesterase (ACHE, Homo sapiens, UniProt P22303); biochemical; concentration not given): inactive
COc1ccc2c3c([nH]c2c1)CCN(C)CC3.O=C(O)/C=C/C(=O)O  Hill coefficient (Neuronal acetylcholine receptor subunit alpha-7 (CHRNA7, Homo sapiens, UniProt P36544); ion current, inhibitor, two-electrode voltage clamp; Xenopus laevis oocytes; added: 100 µM acetylcholine): 1.9 ± 0.1
O=c1c2ccccc2oc2cc(OCCCCc3ccccc3)ccc12  reaction velocity (Acetylcholinesterase (ache, Electrophorus electricus, UniProt O42275); enzyme activity; 0.36 µM, added: substrate 0.86 mM; higher = faster reaction): 0.0011 a.u.
c1ccc2c3c(ccc2c1)-c1cccc2cccc-3c12  fold change (Aryl hydrocarbon receptor (Danio rerio, UniProt Q9YGV3); reporter gene, agonist, luciferase reporter; ZF-4; 1.524 µM; baseline: vehicle control): 1.55
O=C(O)COP(=O)(O)O  Ki ratio (TPI1 (Saccharomyces cerevisiae, UniProt P00942, Y208T); enzyme activity, competitive inhibitor, GPDH/NADH-coupled; pH 7.5, 25 °C, ionic strength 0.1 NaCl, added: glyceraldehyde 3-phosphate substrate; baseline: mutant over wild type): 8.3
COc1ccc(-n2ccnc2SCC(=O)Nc2cc(C)ccc2C)c(OC)c1  IC50 ratio (PFF0160c E182D; enzyme activity, DCIP colorimetric; baseline: E182D mutant over wild type): 3.5
O=c1[nH]cnc2c([C@@H]3N[C@H](CO)[C@@H](O)[C@H]3O)c[nH]c12  ligand efficiency (uncharacterized protein (Trichomonas vaginalis, UniProt A2EYV3); inhibitor): 0.39
O=C1NC(=O)[C@](CNC(=O)c2cnn(-c3ccccc3)n2)(C2CC2)N1  activity (Tissue-type plasminogen activator (PLAT, Homo sapiens, UniProt P00750); inhibitor; concentration not given): inactive
[2H]c1c([2H])c([C@]2([2H])CCCN2C(=O)C(C)(C)Oc2ccc3cn[nH]c3c2)c([2H])c([2H])c1C([2H])([2H])[2H]  remaining binding (Serine/threonine-protein kinase PLK2 (PLK2, Homo sapiens, UniProt Q9NYY3); KINOMEscan; 1 µM; baseline: DMSO control): 95%
CC[C@@H](C)[C@@H](NC(=O)[C@@H](Cc1ccc(O)cc1)NC(=O)[C@H]1CCCN1C(=O)[C@@H](CCCNC(=N)N)NC(=O)[C@H](N)Cc1c[nH]cn1)C(=O)N[C@H](C)C(=O)N[C@H](Cc1c[nH]cn1)C(=O)N[C@H](CCCNC(=N)N)C(=O)N[C@H](CCCCNC(=O)c1cccc(S(=O)(=O)F)c1)C(=O)N[C@H](Cc1ccc(O)cc1)C(=O)N[C@H](CO)C(=O)N[C@H](Cc1ccccc1)C(N)=O  surface TFRC expression (Transferrin receptor protein 1 (Tfrc, Mus musculus, UniProt Q62351); flow cytometry; DC2.4; 24 h, pH 7.4, unit not given; baseline: 0 h): 0.58
CC[C@H](C)[C@H](NC(=O)CNC(=O)[C@@H](N)CCCCN)C(=O)N[C@@H](CC(C)C)C(=O)N[C@@H](CCCCN)C(=O)N[C@@H](CCCNC(=N)N)C(=O)N[C@@H](CCC(=O)O)C(=O)N[C@@H](CCCCN)C(=O)N[C@@H](CCCNC(=N)N)C(=O)N[C@@H](CC(C)C)C(=O)N[C@@H](CCCNC(=N)N)C(=O)N[C@@H](CCCNC(=N)N)C(=O)N[C@@H](CCCCN)C(=O)N[C@@H](CC(N)=O)C(=O)N[C@H](C(=O)N[C@@H](Cc1c[nH]cn1)C(=O)N[C@@H](Cc1c[nH]c2ccccc12)C(=O)N1CCC[C@H]1C(=O)N[C@@H](CCC(=O)O)C(=O)N[C@@H](CCC(=O)O)C(=O)NCC(=O)N[C@@H](CCCCN)C(=O)N[C@@H](CC(C)C)C(=O)N[C@@H](CCCNC(=N)N)C(=O)N[C@@H](CCC(=O)O)C(=O)N[C@@H](Cc1ccccc1)C(=O)N[C@@H](Cc1ccccc1)C(=O)N[C@@H](Cc1ccccc1)C(=O)N[C@@H](Cc1ccccc1)C(=O)N[C@@H](CCC(=O)O)C(=O)N[C@@H](CC(C)C)C(=O)N[C@@H](CC(=O)O)C(=O)N[C@@H](CCC(=O)O)C(=O)N[C@@H](C)C(=O)N[C@@H](CCC(=O)O)C(=O)N[C@@H](CCCNC(=N)N)C(=O)N[C@H](C(=O)N[C@@H](CC(N)=O)C(=O)N[C@H](C(=O)O)C(C)C)C(C)C)C(C)C  log2 fold change (protein phosphatase 1 complexes; bead binding, competitive inhibitor, inhibitor bead pulldown LC-MS/MS, measured: URI1; HeLa and HEK293T cells, cell lysate; concentration not given; baseline: compound over control): -7.26
CCOC(=O)CC(SP(=O)(OC)OC)C(=O)OCC (stereo not shown)  remaining activity (uncharacterized protein (Anopheles coluzzii, UniProt A0A6E8VQK1); enzyme activity, inhibitor; Sf9 cell homogenate; 1.147 µM, 0.1667 h, added: α-naphthyl acetate substrate; baseline: no inhibitor): 8.64%
CC[C@H](C)[C@H](NC(C)=O)C(=O)N[C@@H](CCC(=O)O)C(=O)N[C@H](C(=O)N[C@H](C=O)CC(=O)O)[C@@H](C)O  Hill slope (Caspase-5 (CASP5, Homo sapiens, UniProt P51878)): -0.88
C[C@]1(CO)Cc2ncn(-c3ccc(C#N)c(Cl)c3)c2C(=O)O1  Cmax reduction (healthy subjects; oral, 10 mg, high-fat breakfast; baseline: fasted): ~23%
C[N+](C)(C)[C@@H](Cc1c[nH]c(=S)[nH]1)C(=O)[O-]  Ka (Ergothioneine transport permease/ergothioneine binding protein EgtU, substrate-binding domain (egtU, Helicobacter pylori, UniProt B5Z7I3, S297F); ITC; 30 °C, substrate-binding domain): 2.93e+07 ± 2.71e+07 M⁻¹
